Assay results from different studies.
A part holds a random share of what one study measured.

Study 1 — technique: RNA Bind-n-Seq; form: RNA; medium: in vitro; concentration: 365 nM; reference: no-protein control; reading: higher = stronger binding; quantity: RBNS enrichment (R)
Target: RNA binding protein fox-1 homolog 2, RRM domain, GST-SBP tag (RBFOX2, Homo sapiens, UniProt O43251-10, residues 100-194)
Notes: natural RNA segment, single round, ends assumed
All sequences stand within: GGGAGUUCUACAGUCCGACGAUC … UGGAAUUCUCGGGUGCCAA
Target sequence (chain): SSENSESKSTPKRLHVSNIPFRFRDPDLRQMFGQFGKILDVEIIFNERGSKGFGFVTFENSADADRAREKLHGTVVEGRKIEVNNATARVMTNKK
CAGUGUUAUACCUAAAGCUAAAAAAAAGCAAGGGUUUGUCAUAGAGGGAACCUCUAAAUAAUUUCAGGGGUAGGGGAGAUGUUGUCAAUAGGAAAUGGGAUAAAAUAUCA: 0.834
CCUCCCAGAAGUCAGUCAUCCCCAGGCCGUGCACCCUUUUCAGCUGGAUGAGAGCCAGGGAUGCAUUCUCUCCAAACAGCUACCCUGGCCCAUUUUAAGGUAAUCUCAUU: 0.632
AAUGUAUUCAGUCUUUUAUUCUUUAUAAUUGUGUGUAAAUGUUAACUAAACAGUGGAUUCCUCUCGUGUUACAGUUUUGAGUGAAUUAUUAAAGAAGUUAAAAUGCAAUA: 0.608
UGCAUAGUGUUCACUUUUUAUAGCUGUCCUUUAUUCUAAACAGUAAAGUGGUUUUAUUUCUAUCACAUACCUGCUGUCUCUUGCCUUCUUGUGUCCUGGCUUGGGAGGUU: 0.904
AGCACAAACACUGAAAUGUCUACGUUUCAUUUUGGCAGUAGGGUGUGAAGCUGGGAGCAGAUCAUGUAUUUCCCGGAGACGUGGGACCUUGCUGGCAUGUCUCCUUCACA: 1.56
UAUUUAUUUGUAUUGGGUGAUGAUUGAUUCUUUCGACCUAACAUUUUGGGUUUUAACCAAAUAACCGGUCCAGGAGUGAGCAGCUCCGUUCUGUCAGAUGCUACUCCAAA: 0.401
CUUGAGAAUCUCCAAGAGAAAAAUAUUUGGGGAAGGAGGGAGGAAAUAUGUCCCUUGCACACCACCCCUGAAGCACAUGGCAGUAGGAAACAGCAUAGGAUUGUAUGUGG: 1.16
AUAGCACCUGACAGAAUACUUCUCCUCUUCCUCACCUUCGGGUGCCUCUAGACACUUGACUUACGAUCGUUAUUCCCCCAAUUCAUCAUAUUUUGUUUGUUAUCACCAGA: 1.25
AAGAGUCCCUUGUUAAAGGGGCAGUGGGAGUUAUGGGGUCAUCAAGGACCUUGCCUCUCUGGAAUCUGUCAACCCAGUUUUGGGCUCCAGGUGGAUGGGUUGCUUUAUAA: 0.315
UAAGCUACAAUGCCUAGAAGAGAAUGAGCGGACAGAUUGAAAGAGCUUUGAAAAGUAUAAGGUGCCAUCCACAUAACCUGGUGUUCACGAGAACACACUAAAGGACUCCU: 0.909
UAGUCAGAAUAGCAGUUCUAGAGCACAGGUUCUCAGUCUAAGCUAUGGAAAAGCUCCCCUUAUCCAACAGAGUUUAAAAGUAGUGACUUGGGUUUUUGCGAGUGCUUUGU: 0.432
CCAAGCCUGAGGACAGAGCCGCAUCAAGUCAUCAUCAGCAAGUCAGCCAGCCUGUUUGGUCUGCUUCCCCUUUGCUGGACACCUGCGUCCCUCUCUUGUUUCCUCUCCUC: 0.503

Study 2 — technique: EMSA with sequencing; form: double-stranded DNA, one strand shown; medium: in vitro; concentration: 10 and 20 nM; reference: negative control set to 0; reading: higher = stronger binding; quantity: normalised bound fraction
Target: Hepatocyte nuclear factor 3-alpha (Foxa1, Mus musculus, UniProt P35582, residues 1-468, full length assumed)
Notes: whole designed probe, mean of two concentrations, ends assumed
All sequences stand within: GTGAGCGGTGCCCATTGATGGGGAAC … TTTCACTGGGATCGTGGGGAC
Construct (chain): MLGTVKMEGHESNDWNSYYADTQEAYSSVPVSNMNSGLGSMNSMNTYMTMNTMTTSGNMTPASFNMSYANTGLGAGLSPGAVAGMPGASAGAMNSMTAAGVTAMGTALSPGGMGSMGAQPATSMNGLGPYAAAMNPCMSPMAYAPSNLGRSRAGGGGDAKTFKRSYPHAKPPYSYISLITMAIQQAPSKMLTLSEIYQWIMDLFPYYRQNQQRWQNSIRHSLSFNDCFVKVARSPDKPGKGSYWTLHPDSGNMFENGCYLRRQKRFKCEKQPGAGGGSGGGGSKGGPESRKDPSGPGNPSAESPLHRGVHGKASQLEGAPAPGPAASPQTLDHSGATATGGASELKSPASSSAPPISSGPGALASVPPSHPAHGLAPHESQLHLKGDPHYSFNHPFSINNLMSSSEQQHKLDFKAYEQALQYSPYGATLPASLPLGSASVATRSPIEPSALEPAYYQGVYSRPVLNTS
TGTCCTGGAAGAAGTCCTTATGTGTATGATCTTACTGTAATACCCAGTCTTTATGGACCCATGGCAGTTGACCACTATACTTCATGTACAAAGTAAACATAGGAATGGGAAATGGTATTACTTTGAAAATGGCAACGTGTCCCTAGACTGTTAAGGATCAAATAGTGATGCAAGCAGCATATGTGCTTTTTAA: 0.477 ratio
ACTTTTTCTGTCTGTCTCTGCAGATCCTTACAGTGCTCACTTACCTATTCTTTGACTTCAATCTCTTGTTGCTCTCTTTACTCCACATTCCAAAGTAATCTAGCCTTTTTTTTTTTTAATTTCCTTAGAGGCGTATAGTGGAAGAAAGGGAACAAATCTTGCTTAAATTCACCATCTACTAGCTACCATTTCA: -0.0813 ratio
ATCTTCCCCCTCTTCCTTGCCCCACCAGCTCACCTTCCCGGGTTATTTGCAGATAGGAAAATAAATAAAGCCGGCATTCGTTAACCCTCTTCACGCGCATACTGCCAGAGCAAACAGATCGATGAATCATGTTTGGCGACGCCAGGCTCCGGGAGAGCAAAGCACCGTGTCAGGGCCATGATCCGGGGTGGCC: 0.395 ratio
GGATGGCCTGTGGATCACGCTTTGAGTAGCAAGCTATGGACTGTTCACTGGTCATATGAAAAAGATGATGACACTGATTAGGCCCACCAGCTAAGTAATCTTCGAAAACTCATTCAGCCCCATGAAGTCACTAGAGCTGTGTTAAACAGCCAGTGTGGTCAACAGAAGAAATTTATGTCATGGAAATTGCTTA: -0.0452 ratio
TTGCATTTTCTAAACAAAATTTTAAAAAGATATCAAGAGTACATACAGGTCAAAAGTATTTGAGCTAAGAATGCCAAAGTCCTTACTTCCCTAGATTACTTAAGCTATAGCTTAGACACTTGGTATTTATCGATATTTTAAAGTAATCGACCAGGATTTTACATATCATATTCCTTAAAATAAAGATGTATGG: -0.00457 ratio
TTTAACAACCTATAAACAGGGCCTCGGTATTGAATTCTTTGTCTTATTTAAGTCAAAAGGAACCAGATTACTTTTTTTATGGTTTTAACAAAGTAAACAGGAGCTGGAAAATATCCAAAACTGTTCAAATCAATGTTGTTTTTTACCAGGCTAGGGCTGTTAATAAATATACCATAAATGAGCTCAGACTTTT: 0.236 ratio
CACTAGCCAAGCAAATGCTACCTTTCCTAAATTACGCCGTGGTATTGTGTACGACAGCAGCAGGGTTGCTATTTTAAAATGGGATTGCGTAAAATAAACATGTGCCCAGATGACAGGAAGTACTAAGTTGATGATTAATTGATGCTCTGGTACGGCCTCGTGCTTTCCAGTGCTTCCATTTGTGTGACGATCC: 0.244 ratio
TTTTTTCTGTACAGGGAAAAATAGTGAATATTTCAAAATTGTGAAACAAAGAGTCTCTGTGGCAACTACTCGTTGCATAACATTAGACAATATGCAAACAAATGAGTGTGTCTGTGTTCCAATAAAACTGTATTTACAAAAGCAGAAGGCCACCCATGTGCCAATGTCCAAAGTTTCTCAACCAACCCCTGGT: 0.412 ratio

Study 3 — technique: protein binding microarray; form: double-stranded DNA, one strand shown; medium: in vitro; concentration: not given; reference: not given; reading: higher = stronger binding; quantity: E-score
Target: Histone acetyltransferase KAT6A, winged helix 2, GST fusion (KAT6A, Homo sapiens, UniProt Q92794, residues 85-181)
Notes: 8-mer, flanks averaged, mean of 2 arrays, mostly near background
Target sequence (chain): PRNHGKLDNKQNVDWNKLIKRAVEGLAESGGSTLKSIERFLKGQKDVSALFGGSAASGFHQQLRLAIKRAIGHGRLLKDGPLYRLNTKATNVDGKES
CCATCGGC: 0.00101
AGGGGTCA: -0.0749
ATACATCC: -0.059
CTAGCGAC: 0.0728
ACGCACTG: 0.0898
CGGGGTGA: 0.0484
ATCGTAGA: -0.106
TATAGATA: -0.225
CGTACTAA: 0.0204
CTTGTGAC: -0.0321
ATTAGACG: -0.109
ACAAGCAC: -0.000875
ACCGTTGG: -0.117
ACTGGATC: -0.0393
GCAAGTCC: -0.103
CAATTTAA: 0.183
GTAATGCA: -0.0929
AAACTGGT: 0.106
ATGTCGCC: -0.132
CCGAGCCC: 0.151
GCCAGAAA: 0.2
GTCATGAC: 0.0638

Study 4 — technique: competition protein-binding microarray; form: double-stranded DNA, one strand shown; medium: in vitro; concentration: 2 µM; added: Pho4 competitor, 0.05 µM; reading: higher = stronger binding; quantity: fluorescence intensity; all sequences stand within: … GTCTTGATTCGCTTGACGCTGCTG
Target: Centromere-binding protein 1, full length, His-tagged (CBF1, Saccharomyces cerevisiae, UniProt P17106, residues 1-351)
Sequence of UniProt P17106 (whole entry, looked up): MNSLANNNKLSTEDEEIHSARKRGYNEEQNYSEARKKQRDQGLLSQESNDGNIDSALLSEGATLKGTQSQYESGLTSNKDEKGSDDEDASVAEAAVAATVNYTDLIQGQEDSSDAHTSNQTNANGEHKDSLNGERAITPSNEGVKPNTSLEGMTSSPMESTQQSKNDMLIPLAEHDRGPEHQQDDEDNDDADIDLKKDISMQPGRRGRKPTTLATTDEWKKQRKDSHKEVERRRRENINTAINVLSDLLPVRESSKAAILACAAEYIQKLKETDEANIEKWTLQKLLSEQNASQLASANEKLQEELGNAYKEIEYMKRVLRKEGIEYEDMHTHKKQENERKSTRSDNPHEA
Notes: whole 60-bp probe, lowest competitor level
CGATTTCAGAATCACCACGGGATTGCCAACCCAACA: 151 a.u.
AAAAAAAAAACGAGTCACGTGCAAACAGTACCCCTT: 13800 a.u.
CATACCCAACCTTGGAGTGTGGGTGAAGATATTTGT: 67.9 a.u.
CTTTCCCGATCTTGTCTGGTGGGTGTAGCACATTTG: 86.6 a.u.
GAGATTTAGCCTTTGACCGTGCCGATAGTTGTTTTC: 87.2 a.u.
ATTCCTTTCCTGTAACTCGTGCTTTGAGAAAAGTAC: 146 a.u.
AATCATTTAGTCCATCACGTCAACCTGTCTAAAATA: 102 a.u.
AAACAAATATTAGCTCGCGTGGCCGAATGGCAACGC: 80.3 a.u.
CGGGGTTAAGTTTGTCACCATACTTGCTTGCAGCAG: 72.6 a.u.
AGCTTCCGAGACTTTTTCGTGATGGGAGATAGATGC: 74.2 a.u.
TGCGCAACAACTTGGATAGTGGGTGTATGTCTAGAA: 66.3 a.u.
CGTCCTAGCGATTGATGCGTGGGTGCCATGAGGAAG: 73.3 a.u.
AACTTGCAAGGCTGTCCCGTGTCCTTCCTAATGGGT: 139 a.u.
GTCTTCTTGAATCCACACGTGAATACTACCTTTTTT: 651 a.u.
GTTTGACTACGTACGACCGTGCCAGACTTGCCGATG: 62.9 a.u.
AAAATCACTTTCCATCACGTGCCGAGGGTGGAACGC: 3840 a.u.
CCCATAGATTGCGGGCACATGGCGCAGTTGGTAGCG: 98.2 a.u.
GCCAGTTTTTCGTTGCTCGTGCAAAGTGAGACGGTG: 117 a.u.
ACAAATCAAGAATCGCACGTGAAAATATCAAGCGCG: 884 a.u.
TTCCAGGACATTCACCATGTGCTTTTTTCCATAACA: 137 a.u.
AAAGAACTCCCTTCGCATGTGATGAAGGTTATAGGT: 267 a.u.
CTTCTGTAAATTTGTCACATTACTTGACGCGCCCCG: 136 a.u.
CTTCTGTAAATTTGCTCCGTGGGTGGACGCGCCCCG: 82.9 a.u.
CGTCCTAGTGATTTTCACGTGGCGTCCATGAGGAAG: 815 a.u.
GTGACGAAAACGGATGCCATGTTCCAGCACCAACTG: 79.5 a.u.

Excerpt of the above (study 4):
ATTCCTTTCCTGTAACTCGTGCTTTGAGAAAAGTAC: 146 a.u.
AATCATTTAGTCCATCACGTCAACCTGTCTAAAATA: 102 a.u.
AAACAAATATTAGCTCGCGTGGCCGAATGGCAACGC: 80.3 a.u.
CGGGGTTAAGTTTGTCACCATACTTGCTTGCAGCAG: 72.6 a.u.
AGCTTCCGAGACTTTTTCGTGATGGGAGATAGATGC: 74.2 a.u.
TGCGCAACAACTTGGATAGTGGGTGTATGTCTAGAA: 66.3 a.u.
CGTCCTAGCGATTGATGCGTGGGTGCCATGAGGAAG: 73.3 a.u.
AACTTGCAAGGCTGTCCCGTGTCCTTCCTAATGGGT: 139 a.u.
GTCTTCTTGAATCCACACGTGAATACTACCTTTTTT: 651 a.u.
GTTTGACTACGTACGACCGTGCCAGACTTGCCGATG: 62.9 a.u.
AAAATCACTTTCCATCACGTGCCGAGGGTGGAACGC: 3840 a.u.
